Results pooled from the literature.
Each line is one published result; not all experiments were run side by side. ± gives the spread as reported.
NR1H4: Bile acid receptor (NR1H4, Homo sapiens, UniProt Q96RI1)
Chain of UniProt Q96RI1 (whole entry, looked up): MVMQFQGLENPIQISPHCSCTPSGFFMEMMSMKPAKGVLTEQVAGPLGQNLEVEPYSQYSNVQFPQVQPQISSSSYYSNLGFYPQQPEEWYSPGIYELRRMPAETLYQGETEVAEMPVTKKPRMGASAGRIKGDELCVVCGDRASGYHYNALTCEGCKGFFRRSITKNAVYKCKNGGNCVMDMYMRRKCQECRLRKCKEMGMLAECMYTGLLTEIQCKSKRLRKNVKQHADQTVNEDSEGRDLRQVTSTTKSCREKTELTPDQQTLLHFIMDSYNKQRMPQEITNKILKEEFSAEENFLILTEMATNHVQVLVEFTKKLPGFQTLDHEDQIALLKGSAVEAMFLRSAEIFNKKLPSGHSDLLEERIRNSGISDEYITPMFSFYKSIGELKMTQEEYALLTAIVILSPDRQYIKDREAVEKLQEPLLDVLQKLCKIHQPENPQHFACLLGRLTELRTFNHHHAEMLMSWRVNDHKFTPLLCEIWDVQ
Chain of UniProt Q14451 (whole entry, looked up): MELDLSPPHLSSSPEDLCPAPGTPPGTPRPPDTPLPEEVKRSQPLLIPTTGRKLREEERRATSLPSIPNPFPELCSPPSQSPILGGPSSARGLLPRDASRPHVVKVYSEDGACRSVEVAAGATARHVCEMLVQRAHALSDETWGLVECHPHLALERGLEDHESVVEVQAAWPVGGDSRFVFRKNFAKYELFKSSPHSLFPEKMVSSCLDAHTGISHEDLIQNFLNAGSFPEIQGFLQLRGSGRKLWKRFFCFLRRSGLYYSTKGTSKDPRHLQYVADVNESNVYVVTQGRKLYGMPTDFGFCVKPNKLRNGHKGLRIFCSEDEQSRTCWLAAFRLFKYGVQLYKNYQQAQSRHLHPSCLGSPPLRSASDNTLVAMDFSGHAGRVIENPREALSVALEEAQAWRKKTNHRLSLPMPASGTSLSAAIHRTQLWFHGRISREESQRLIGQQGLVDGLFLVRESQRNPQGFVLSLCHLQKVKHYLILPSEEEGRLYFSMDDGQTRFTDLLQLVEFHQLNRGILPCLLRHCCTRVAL
Chain of UniProt Q14449 (whole entry, looked up): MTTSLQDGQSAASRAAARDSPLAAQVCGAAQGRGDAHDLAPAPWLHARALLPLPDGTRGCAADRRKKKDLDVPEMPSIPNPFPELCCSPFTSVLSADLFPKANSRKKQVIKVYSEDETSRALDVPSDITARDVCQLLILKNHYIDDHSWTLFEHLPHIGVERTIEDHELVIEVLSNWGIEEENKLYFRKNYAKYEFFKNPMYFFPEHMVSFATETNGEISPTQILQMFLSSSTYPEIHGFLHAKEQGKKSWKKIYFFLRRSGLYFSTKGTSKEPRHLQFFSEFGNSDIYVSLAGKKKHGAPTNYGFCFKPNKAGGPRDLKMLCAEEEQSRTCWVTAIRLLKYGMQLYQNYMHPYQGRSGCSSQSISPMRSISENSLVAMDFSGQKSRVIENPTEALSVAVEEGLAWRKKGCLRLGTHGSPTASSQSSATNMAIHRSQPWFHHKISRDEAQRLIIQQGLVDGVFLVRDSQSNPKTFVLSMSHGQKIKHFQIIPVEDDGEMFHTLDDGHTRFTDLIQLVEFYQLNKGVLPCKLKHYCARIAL
Chain of UniProt P35348 (whole entry, looked up): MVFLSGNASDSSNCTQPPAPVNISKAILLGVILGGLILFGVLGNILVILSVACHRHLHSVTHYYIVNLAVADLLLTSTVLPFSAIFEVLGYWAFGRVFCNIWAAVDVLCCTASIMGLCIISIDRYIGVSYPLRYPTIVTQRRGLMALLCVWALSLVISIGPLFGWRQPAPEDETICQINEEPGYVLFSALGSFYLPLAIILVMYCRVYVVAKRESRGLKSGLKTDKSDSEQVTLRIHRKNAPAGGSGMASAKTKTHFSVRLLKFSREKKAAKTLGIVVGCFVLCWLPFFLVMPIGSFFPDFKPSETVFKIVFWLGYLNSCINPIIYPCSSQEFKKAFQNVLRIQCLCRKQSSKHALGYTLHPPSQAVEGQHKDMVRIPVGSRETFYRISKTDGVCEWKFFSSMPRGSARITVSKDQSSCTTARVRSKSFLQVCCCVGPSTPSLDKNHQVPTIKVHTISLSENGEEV
Chain of UniProt P29350 (whole entry, looked up): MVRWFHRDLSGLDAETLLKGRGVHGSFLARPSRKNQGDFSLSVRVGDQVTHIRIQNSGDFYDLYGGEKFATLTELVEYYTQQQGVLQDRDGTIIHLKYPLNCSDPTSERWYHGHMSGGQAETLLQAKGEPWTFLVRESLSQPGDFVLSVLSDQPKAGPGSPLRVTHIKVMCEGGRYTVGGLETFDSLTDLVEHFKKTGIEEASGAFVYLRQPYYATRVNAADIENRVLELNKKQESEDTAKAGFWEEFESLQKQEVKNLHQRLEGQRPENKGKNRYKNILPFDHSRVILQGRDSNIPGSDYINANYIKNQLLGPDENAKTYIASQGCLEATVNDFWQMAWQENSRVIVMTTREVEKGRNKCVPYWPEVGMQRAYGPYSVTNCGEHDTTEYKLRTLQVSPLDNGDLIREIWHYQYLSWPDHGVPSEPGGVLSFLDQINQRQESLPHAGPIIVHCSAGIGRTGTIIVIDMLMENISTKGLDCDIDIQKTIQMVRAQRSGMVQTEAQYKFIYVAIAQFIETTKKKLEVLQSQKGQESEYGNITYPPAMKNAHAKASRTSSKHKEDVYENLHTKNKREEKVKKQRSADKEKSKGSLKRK
Chain of UniProt Q8GME2 (whole entry, looked up): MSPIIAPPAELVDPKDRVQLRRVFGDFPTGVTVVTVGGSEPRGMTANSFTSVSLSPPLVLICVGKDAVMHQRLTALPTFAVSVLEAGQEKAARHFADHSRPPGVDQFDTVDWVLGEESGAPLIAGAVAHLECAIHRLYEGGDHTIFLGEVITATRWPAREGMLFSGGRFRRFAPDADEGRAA
Chain of UniProt P32245 (whole entry, looked up): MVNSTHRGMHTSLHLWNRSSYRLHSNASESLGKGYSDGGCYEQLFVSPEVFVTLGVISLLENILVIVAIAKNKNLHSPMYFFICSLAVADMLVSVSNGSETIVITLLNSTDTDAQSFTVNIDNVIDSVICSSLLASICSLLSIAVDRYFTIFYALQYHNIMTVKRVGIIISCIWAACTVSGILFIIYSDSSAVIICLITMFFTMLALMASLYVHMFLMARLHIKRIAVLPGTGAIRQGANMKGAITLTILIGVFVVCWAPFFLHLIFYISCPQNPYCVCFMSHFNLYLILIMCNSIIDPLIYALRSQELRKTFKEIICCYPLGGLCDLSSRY
Chain of UniProt P51531 (whole entry, unmodified, looked up): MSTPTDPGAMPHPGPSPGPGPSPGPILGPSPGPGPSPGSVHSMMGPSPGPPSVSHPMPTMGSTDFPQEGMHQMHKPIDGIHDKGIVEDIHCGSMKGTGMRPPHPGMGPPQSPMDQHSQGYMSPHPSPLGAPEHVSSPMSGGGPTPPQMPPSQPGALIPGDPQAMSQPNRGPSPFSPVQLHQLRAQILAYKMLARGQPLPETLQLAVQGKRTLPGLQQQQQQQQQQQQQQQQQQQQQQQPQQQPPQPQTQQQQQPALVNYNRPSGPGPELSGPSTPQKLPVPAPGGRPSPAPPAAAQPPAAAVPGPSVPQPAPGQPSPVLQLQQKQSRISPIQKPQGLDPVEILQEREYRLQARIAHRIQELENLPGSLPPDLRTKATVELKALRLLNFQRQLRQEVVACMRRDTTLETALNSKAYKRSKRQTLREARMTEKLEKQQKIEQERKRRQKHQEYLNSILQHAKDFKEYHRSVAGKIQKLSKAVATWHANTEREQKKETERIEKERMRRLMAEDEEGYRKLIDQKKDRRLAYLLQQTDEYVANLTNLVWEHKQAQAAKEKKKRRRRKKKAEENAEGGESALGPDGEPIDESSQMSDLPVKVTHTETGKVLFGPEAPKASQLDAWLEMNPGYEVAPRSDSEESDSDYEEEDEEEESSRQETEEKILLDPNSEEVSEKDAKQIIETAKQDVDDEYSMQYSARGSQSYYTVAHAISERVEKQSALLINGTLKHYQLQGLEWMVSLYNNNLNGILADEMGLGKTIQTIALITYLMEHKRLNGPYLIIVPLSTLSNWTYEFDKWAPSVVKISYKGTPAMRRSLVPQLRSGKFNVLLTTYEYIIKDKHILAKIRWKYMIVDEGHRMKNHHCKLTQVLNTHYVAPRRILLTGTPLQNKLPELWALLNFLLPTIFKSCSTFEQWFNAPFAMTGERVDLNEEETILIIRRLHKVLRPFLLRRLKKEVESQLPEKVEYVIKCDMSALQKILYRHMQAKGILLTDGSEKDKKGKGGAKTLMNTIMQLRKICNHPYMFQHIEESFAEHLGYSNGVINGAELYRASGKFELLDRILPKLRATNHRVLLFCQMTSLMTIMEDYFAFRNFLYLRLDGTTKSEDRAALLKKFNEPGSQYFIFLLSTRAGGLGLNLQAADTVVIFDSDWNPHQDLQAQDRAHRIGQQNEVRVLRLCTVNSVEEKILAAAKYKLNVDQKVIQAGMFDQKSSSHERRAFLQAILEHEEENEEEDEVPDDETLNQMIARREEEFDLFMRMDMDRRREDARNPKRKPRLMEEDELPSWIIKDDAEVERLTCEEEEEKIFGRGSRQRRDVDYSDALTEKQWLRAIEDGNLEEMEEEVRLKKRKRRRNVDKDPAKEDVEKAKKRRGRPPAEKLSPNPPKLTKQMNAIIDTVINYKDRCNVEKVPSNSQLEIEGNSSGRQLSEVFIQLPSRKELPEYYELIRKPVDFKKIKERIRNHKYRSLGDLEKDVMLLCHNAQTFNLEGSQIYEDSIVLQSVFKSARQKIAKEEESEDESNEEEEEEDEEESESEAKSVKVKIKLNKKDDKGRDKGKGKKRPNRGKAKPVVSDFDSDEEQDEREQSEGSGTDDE

| Structure (SMILES) | target | assay | test system | conditions | endpoint | result |
| --- | --- | --- | --- | --- | --- | --- |
| CC[C@H](C)[C@H](NC(=O)[C@H](Cc1ccc(OP(=O)(O)O)cc1)NC(=O)[C@H](CCC(=O)O)NC(=O)[C@H](Cc1c[nH]cn1)NC(=O)CNC(=O)[C@H](CC(=O)O)NC(=O)[C@H](CO)NC(=O)[C@H](CO)NC(=O)[C@@H](NC(=O)[C@H](CO)NC(=O)[C@H](CCC(=O)O)NC(=O)c1ccc2c(c1)C(=O)OC21c2ccc(N(C)C)cc2Oc2cc(N(C)C)ccc21)C(C)C)C(=O)N[C@@H](Cc1ccc(O)cc1)C(=O)N[C@H](C(=O)N[C@@H](CC(=O)O)C(=O)N1CCC[C@H]1C(=O)N[C@@H](CCSC)C(=O)N[C@@H](CCC(N)=O)C(=O)N[C@@H](CC(=O)O)C(=O)O)C(C)C | Growth factor receptor-bound protein 7, SH2 domain (GRB7, Homo sapiens, UniProt Q14451) | binding | – | – | Kd | 1260 nM |
| CO[C@H]1C[C@H](O[C@@H]2/C(C)=C/C[C@@H]3C[C@@H](C[C@]4(CC[C@H](C)[C@@H](C5CCCCC5)O4)O3)OC(=O)[C@@H]3C=C(C)/C(=N/O)[C@H]4OC/C(=C\C=C\[C@@H]2C)[C@]43O)O[C@@H](C)[C@@H]1O | NR1H4 | receptor activity, inhibitor | cells | – | IC50 | 3330 ± 730 nM |
| CC(C)C[C@H](NC(=O)[C@@H](NC(=O)[C@H](CO)NC(=O)[C@H](CO)NC(=O)[C@@H](NC(=O)[C@H](CC(=O)O)NC(=O)[C@H](CC(C)C)NC(=O)[C@@H]1CCCN1C(=O)[C@H](CO)NC(=O)c1ccc2c(c1)C(=O)OC21c2ccc(N(C)C)cc2Oc2cc(N(C)C)ccc21)[C@@H](C)O)C(C)C)C(=O)N[C@@H](Cc1ccc(OP(=O)(O)O)cc1)C(=O)N[C@H](C(=O)N[C@@H](C)C(=O)N[C@H](C(=O)N[C@@H](CCC(N)=O)C(=O)N1CCC[C@H]1C(=O)N[C@@H](CC(N)=O)C(=O)N[C@@H](CCC(=O)O)C(=O)N[C@@H](CC(=O)O)C(=O)O)C(C)C)[C@@H](C)O | Tyrosine-protein phosphatase non-receptor type 6, SH2 domains (PTPN6, Homo sapiens, UniProt P29350) | binding | – | – | Kd | 1090 nM |
| Cc1ncsc1-c1ccc(CNC(=O)[C@@H]2C[C@@H](O)CN2C(=O)[C@@H](NC(=O)C2(F)CC2)C(C)(C)C)c(OCCOc2ccc(CN3CCN(c4cc(-c5ccccc5O)nnc4N)CC3)cc2)c1 | SMARCA2 (Homo sapiens, UniProt P51531) | degrader, immunoblot | SMARCA4-mutant lung cancer cells | 96 h, median of twelve cell lines | DC50 | 6.5 nM |
| NC(=O)c1ccc[n+]([C@@H]2O[C@H](COP(=O)(O)OP(=O)(O)OC[C@H]3O[C@@H](n4cnc5c(N)ncnc54)[C@H](OP(=O)(O)O)[C@@H]3O)[C@@H](O)[C@H]2O)c1 | chnB (Rhodococcus sp. HI-31, UniProt C0STX7, L145N) | – | – | – | Ki | 42000 nM |
| COc1cc2c(cc1OC)-c1c(OC)c(OC)cc3c1[C@H](C2)N(C)CC3 | ADRA1A (Homo sapiens, UniProt P35348) | radioligand binding | – | – | Ki | 421 nM |
| COc1cc(Nc2ncc(F)c(Nc3ccc4c(n3)NC(=O)C(C)(C)O4)n2)cc(OC)c1OC | MC4R (Homo sapiens, UniProt P32245) | – | – | – | IC50 | > 10000 nM |
| NC(=O)C1=CN([C@@H]2O[C@H](COP(=O)(O)OP(=O)(O)OC[C@H]3O[C@@H](n4cnc5c(N)ncnc54)[C@H](O)[C@@H]3O)[C@@H](O)[C@H]2O)C=CC1 | NADH-dependent FAD reductase (sgcE6, Streptomyces globisporus, UniProt Q8GME2) | substrate | – | – | Km | 53 ± 8 µM |
| CO/N=C1\C[C@]2(C[C@@H]3C[C@@H](C/C=C(\C)C[C@@H](C)/C=C/C=C4\CO[C@@H]5[C@H](O)C(C)=C[C@@H](C(=O)O3)[C@]45O)O2)O[C@H](/C(C)=C/C(C)C)[C@H]1C | NR1H4 | receptor activity, inhibitor | cells | – | IC50 | 9560 ± 3080 nM |
| CSCC[C@H](NC(=O)CNC(=O)[C@H](Cc1ccccc1)NC(=O)[C@H](CC(=O)O)NC(=O)CNC(=O)c1ccc2c(c1)C(=O)OC21c2ccc(N(C)C)cc2Oc2cc(N(C)C)ccc21)C(=O)N[C@@H](CO)C(=O)N[C@@H](CCCNC(=N)N)C(=O)N[C@@H](CC(=O)O)C(=O)N[C@H](C(=O)N[C@@H](Cc1ccc(OP(=O)(O)O)cc1)C(=O)N[C@@H](CO)C(=O)N[C@H](C(=O)N[C@@H](CC(=O)O)C(=O)N[C@@H](Cc1ccc(O)cc1)C(=O)N[C@@H](Cc1ccc(O)cc1)C(=O)N[C@@H](CCCNC(=N)N)C(=O)N[C@H](C(=O)N[C@@H](CC(=O)O)C(=O)O)C(C)C)[C@@H](C)O)C(C)C | Growth factor receptor-bound protein 14, SH2 domain (GRB14, Homo sapiens, UniProt Q14449) | binding | – | – | Kd | 1510 nM |
